Measurements from different studies.
Each line is one published result; not all experiments were run side by side. Values joined by “and” are separate records of one study, mostly repeats; a detail may differ. ± marks the error that the study gave. ≈ marks a conversion by molar mass, not a printed value.
Sequence of UniProt P08684 (whole entry, looked up): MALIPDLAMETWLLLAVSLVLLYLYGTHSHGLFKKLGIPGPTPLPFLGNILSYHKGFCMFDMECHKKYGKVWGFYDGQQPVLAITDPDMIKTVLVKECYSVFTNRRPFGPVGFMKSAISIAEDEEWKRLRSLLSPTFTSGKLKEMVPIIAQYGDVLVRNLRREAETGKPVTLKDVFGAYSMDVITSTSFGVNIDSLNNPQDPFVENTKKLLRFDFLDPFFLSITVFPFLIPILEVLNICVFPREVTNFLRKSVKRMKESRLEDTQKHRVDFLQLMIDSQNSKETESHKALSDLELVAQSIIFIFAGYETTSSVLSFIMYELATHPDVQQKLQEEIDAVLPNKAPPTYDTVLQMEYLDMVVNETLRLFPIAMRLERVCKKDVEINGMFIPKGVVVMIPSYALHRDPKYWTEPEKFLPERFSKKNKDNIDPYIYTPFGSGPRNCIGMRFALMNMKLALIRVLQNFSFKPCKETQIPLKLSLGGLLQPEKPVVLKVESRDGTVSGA
Sequence of UniProt Q9UNQ0 (whole entry, looked up): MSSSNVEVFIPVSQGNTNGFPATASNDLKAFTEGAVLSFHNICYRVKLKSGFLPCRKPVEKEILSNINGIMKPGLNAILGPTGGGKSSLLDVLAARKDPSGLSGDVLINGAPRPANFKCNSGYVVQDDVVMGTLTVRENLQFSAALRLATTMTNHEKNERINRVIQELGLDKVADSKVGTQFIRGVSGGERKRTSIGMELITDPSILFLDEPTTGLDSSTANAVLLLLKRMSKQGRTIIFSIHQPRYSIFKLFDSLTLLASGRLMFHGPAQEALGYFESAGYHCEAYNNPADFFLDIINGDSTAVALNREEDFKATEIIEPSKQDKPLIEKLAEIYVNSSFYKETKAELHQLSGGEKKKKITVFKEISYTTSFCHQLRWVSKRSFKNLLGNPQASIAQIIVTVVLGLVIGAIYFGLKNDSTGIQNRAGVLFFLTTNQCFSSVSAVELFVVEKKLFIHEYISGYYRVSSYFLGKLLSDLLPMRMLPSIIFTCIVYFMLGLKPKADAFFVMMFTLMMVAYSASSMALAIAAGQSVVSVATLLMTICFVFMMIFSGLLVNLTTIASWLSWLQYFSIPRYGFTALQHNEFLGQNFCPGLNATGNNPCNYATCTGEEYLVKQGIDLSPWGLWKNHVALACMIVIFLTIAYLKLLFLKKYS

Compound	tested on	test	system	setting	scale	quantity	value
O=C1NC2(CC2)COc2ncc(F)cc2[C@H]2COCCN2c2ccn3ncc1c3n2			Sprague-Dawley rat, male, serum	oral, 2.5 mg/kg/day, end of treatment, 4-week subacute toxicity		serum hepatic lipase activity	3.3 ± 0.7 U/L
CN1CC[C@]23c4c5ccc(O)c4O[C@H]2[C@H](O)CC[C@@]3(O)[C@H]1C5		PAMPA-BBB	porcine brain lipid	500 µM, 4 h, pH 7.4, 1% DMSO		Papp	2.62 ×10⁻⁶ cm/s
Cc1cc(-c2ccc3ccccc3c2)nnc1NCCN1CCN(C)CC1	Cytochrome P450 3A4 (CYP3A4, Homo sapiens, UniProt P08684)	substrate	recombinant enzyme	100 nM, 0.5 h		remaining compound	92%
Cc1ccc(OC2CN(C)C2)cc1C(=O)N[C@H](C)c1cc(-c2cnn(C)c2)nc2ccccc12	Vero E6			500 µM		viability	0.495% and 0.33% and 0.165%
COc1ccc2c3c1O[C@H]1[C@@H](O)C=C[C@H]4[C@@H](C2)N(CCc2ccccc2)CC[C@@]341			octanol/phosphate buffer	1 h, pH 6.89, ionic strength 0.15 M		logD	2.03
Nc1nc(Nc2ccc(Cl)cc2)nn1S(=O)(=O)c1ccc2ccccc2c1	Syrian hamster cells					CC50	7 µM
Cc1nc2cccc(OCC(C)(C)C(=O)NC(C)C)c2c(N)c1C(=O)[O-].[Na+]	Salmonella typhimurium		TA1537	0.32 mg per plate, without S9, preincubation		revertant colonies per plate	13 ± 1
Cc1ccc(N(C)CCN2CCOCC2)cc1C(=O)N[C@H](C)c1cc(-c2cnn(C)c2)nc2ccccc12	Vero E6			250 µM		viability	55% and 36.7% and 32.9%
O=C1CC[C@@]2(O)[C@H]3Cc4ccc(O)c5c4[C@@]2(CCN3CCc2ccccc2)[C@H]1O5		PAMPA-BBB	porcine brain lipid	500 µM, 4 h, pH 7.4, 1% DMSO		Papp	48.8 ×10⁻⁶ cm/s
CC(C)N1CN(C2c3ccccc3CSc3ccccc32)n2cc(C(=O)O)c(=O)c(O)c2C1=O (stereo not shown)			dog cells			CC50	7 µM
CC(=O)NCCCC[C@@H]1NC(=O)[C@H](Cc2c[nH]c3c(C)cccc23)NC(=O)[C@H]([C@@H](C)O)NC(=O)[C@H](CC(N)=O)NC(=O)[C@@H](NC(C)=O)C(C)(C)SSC(C)(C)[C@@H](C(=O)N[C@@H](Cc2ccc(OCCN)cc2)C(=O)N[C@@H](Cc2ccc3ccccc3c2)C(=O)NC2(C(=O)N[C@@H](CCC(=O)O)C(=O)N[C@@H](CC(N)=O)C(=O)N[C@@H](Cc3cccnc3)C(=O)N(C)CC(N)=O)CCOCC2)NC1=O	ABCG2 (Homo sapiens, UniProt Q9UNQ0)	transport, inhibitor	LLC-PK1 cells	concentration not given, added: [3H]prazosin		inhibition	no inhibition
COc1ccnc(C(=O)N[C@H]2COC(=O)[C@H](Cc3ccccc3)[C@@H](OC(=O)C(C)C)[C@H](C)OC2=O)c1O	Oncorhynchus mykiss			96 h, acute risk assessment		LC50	7.3 ng/mL (≈ 0.0142 µM)
CCn1cc(-c2cc([C@@H](C)NC(=O)c3cc(OCCN(C)C)ccc3C)c3ccccc3n2)c(C(F)(F)F)n1	Vero E6			7.812 µM		viability	111% and 105%
CN(C)c1ccc(-c2nc3ccccc3n2CCCOc2ccccc2)cc1	CHO	cytotoxicity		3 days		IC50	> 10 µM
CCn1ccc(-c2cc([C@@H](C)NC(=O)c3cc(OC[C@@H]4CCCN4C)ccc3C)c3ccccc3n2)n1	Vero E6			500 µM		viability	2.39% and 2.15%
Oc1ccc2c3c1OC1C(O)C=CC4C(C2)N(CC2CCC2)CCC341 (stereo not shown)		PAMPA-BBB	porcine brain lipid	500 µM, 4 h, pH 7.4, 1% DMSO		Papp	18.3 ×10⁻⁶ cm/s
Cc1ccc(OCCN(C)C)cc1C(=O)N[C@H](C)c1cc(-c2ccc(C(F)(F)F)s2)nc2ccccc12	Vero E6			31.25 µM		viability	0% and 1.69%
CNC(=O)C1CCCN(C(=O)C2CC3CCC2N3C(=O)[C@@H]2C[C@@H](O)CN2C(=O)NCc2cccc(Cl)c2F)C1 (mixture of isomers)	CYP3A4 (human)	inhibitor, time-dependent inhibition		0.617 µM, preincubated with NADPH, added: midazolam substrate	reference: negative control	remaining activity	97.8%
Cc1cc(-c2cc([C@@H](C)NC(=O)c3cc(OCCN(C)C)ccc3C)c3ccccc3n2)n(C)n1	Vero E6			7.812 µM		viability	106% and 110%
COc1cc2c(cc1NC(=O)c1cncn1C)C[C@H]1[C@H]3CCCC[C@@]23CCN1C			C57BL/6 mice, plasma	oral, 50 µg/g, 15 min		plasma concentration	14500 ng/mL and 11700 ng/mL and 10100 ng/mL and 11200 ng/mL and 6560 ng/mL
Cc1ccc(OC[C@@H]2CCCN2C)cc1C(=O)N[C@H](C)c1cc(-c2cnn(C)c2)nc2ccccc12	Vero E6			500 µM		viability	0.565% and 3.01%
COc1ccc2c3c1O[C@H]1[C@@H](O)C=C[C@H]4[C@@H](C2)N(CC2CCC2)CC[C@@]341			octanol/buffer	1 h, pH 7.4		logD	1.39

Repeated from above:
Compound	tested on	test	system	setting	scale	quantity	value
COc1ccc2c3c1O[C@H]1[C@@H](O)C=C[C@H]4[C@@H](C2)N(CCc2ccccc2)CC[C@@]341			octanol/phosphate buffer	1 h, pH 6.89, ionic strength 0.15 M		logD	2.03
Nc1nc(Nc2ccc(Cl)cc2)nn1S(=O)(=O)c1ccc2ccccc2c1	Syrian hamster cells					CC50	7 µM
